Results pooled from the literature.
Each numbered part is a random draw from the data of one study; scales do not carry over between parts.

Series 1 — method: RNA Bind-n-Seq; form: RNA; sample: in vitro; tested at: 365 nM; baseline: no-protein control; reading: higher = stronger binding; endpoint: RBNS enrichment (R)
Target: RNA binding protein fox-1 homolog 2, RRM domain, GST-SBP tag (RBFOX2, Homo sapiens, UniProt O43251-10, residues 100-194)
Setting: natural RNA segment, single round, ends assumed
Constant ends, left off below: GGGAGUUCUACAGUCCGACGAUC … UGGAAUUCUCGGGUGCCAA
Target sequence (chain): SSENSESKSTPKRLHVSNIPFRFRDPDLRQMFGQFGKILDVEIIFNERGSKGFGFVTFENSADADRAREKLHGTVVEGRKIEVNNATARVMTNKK
UCCUGCAAGAGCAGGUAUUCCAAUGACACUGGCCUGUGCUUAGCUGAGGAACUUCCAGCUUCAGAUUCUGUUACAAGUGUCACUUGCCAAAGGACCUUACUGUUCCUUCU: 0.244
CUGUGCAGGAGUGGCCGGGGAAGCUGGCAGCACUCAGUGAGGCCGCCCGGCACACAAGGCACGUUUGGCAUUUCUCUUUGAGAGAGUUUAUCAUUGGGAGAAGCCGCAGG: 0.266
GGCACAGGCUGGGUCCAGUUCUGCCUGAGCACGGUUUUUCCUCAUGUGACUUCUGGGAAGGCGCUCCCUCAUCUGGGCCAAAGGAAGGAGGACGAAGCCCUCCUCAGCUG: 0.317
CUUAUGUUUGCUUAAAUAGCAAAAAUCAACACUAAAUGUCUAAAGGAAUUUGUAAUUUGAGACCUAGUAUUUUUACACAAUAAACCUGCUAAAACAGGCUUUAAAAGACA: 0.59
CUGUGCCAUGUCUGUCAUUCCUGUUGAACAGACUCUUCCUGUCUGGUGACCACCUAUGCUUCAGUGCAUUUUCUAAACAAUUUCUCAAACUGAUCUGCUCCCGGGUGCUU: 0.928
CAGCUCUCCAUGCUGAGCUGUGGCCAAGGGGAACAGGUGGGAUGUUGCUGGCCGCCUUCAGAAUCGGGGGGAGUUUAGUCUGAGACAUCCCUGCUCCCCCUUUUUUCAAG: 0.507
AAGCCAGCACGCGGUUCUGUGCUAUAGGAGUCUCCCGUUUCCCGUGGACAGGUUCAGCGUUCCUUCUUUCGCACAACUUUUUUCUAAGUGUUCCAGUGACCAAGCCAGUC: 1.65
AGGGAGAGCUUCCUCGCUGGACGGGACCCACCUUUCUGUGUUGUUUACACCUUGCCCUUCUGUGCGUUCCAUUUCUGUAGUAUGUUUCCUCUUUCCUCCAUUCAUCAUCA: 0.748

Series 2 — method: universal PBM; form: double-stranded DNA, one strand shown; sample: in vitro; tested at: not given; reading: higher = stronger binding; endpoint: E-score
Target: Sal-like protein 4, full length isoform B (SALL4, Homo sapiens, UniProt Q9UJQ4-2, residues 1-616)
Setting: 8-mer, flanks averaged, mean of replicates
AGCTGCGG: -0.351
CATTGCAG: -0.0729
CGTGTTCC: -0.217
GATTGTAA: 0.232
CGCAGCCG: -0.334
CGTCCCAG: -0.197
GTAGATAA: 0.239
AACAACTG: 0.0306
AATCGACC: -0.0575
GTCCCACA: -0.116
ACAGAACA: 0.0944
GCTCCCCA: -0.265
CTTCTTAA: 0.186
ATGCGAAC: -0.00485
AATAAGTC: 0.212
ACACAGTA: 0.197
CCGTAGGA: -0.23
ATTGAGCA: 0.117
GTATTCTA: 0.187
CACGCTGA: -0.0641
GGGTCGCA: -0.127
CCAGTACA: 0.13
GCTATTAC: 0.153
AACTCATT: 0.0688
CTGCTTTA: 0.0716

Series 3 — method: RNA Bind-n-Seq; form: RNA; sample: in vitro; tested at: not given; baseline: input RNA pool; reading: higher = stronger binding; endpoint: bound/input enrichment
Target: RING finger protein unkempt homolog, zinc fingers 1-6, GST-SBP tag (UNK, Homo sapiens, UniProt Q9C0B0, residues 30-357)
Chain of UniProt Q9C0B0 (30-357, looked up): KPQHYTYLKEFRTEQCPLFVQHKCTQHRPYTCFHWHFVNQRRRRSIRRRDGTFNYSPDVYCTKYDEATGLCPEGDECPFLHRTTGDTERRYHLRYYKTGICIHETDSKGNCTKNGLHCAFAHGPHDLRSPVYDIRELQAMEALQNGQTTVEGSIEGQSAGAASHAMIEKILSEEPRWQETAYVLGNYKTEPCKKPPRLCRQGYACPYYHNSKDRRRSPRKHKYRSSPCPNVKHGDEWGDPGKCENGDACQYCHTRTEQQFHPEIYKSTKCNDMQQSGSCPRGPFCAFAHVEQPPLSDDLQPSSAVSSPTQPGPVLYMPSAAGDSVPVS
Setting: RNA with constant flanks, human and mouse sites, ends assumed
Constant ends, left off below: GGGAGUUCUACAGUCCGACGAUC … CAACAGAGGAUUGAGCAUCA
CUAGGAAAGAAGUGGAUGGGAAUUGUAGGCAUAGAUUUCAUAUCAAGGGCAUUUCAAGACAGAAUUUUUAUUUCCUGUAGUAGGCUUGCUGGAGCAAAGGAAAUGUGCUGCUAAAAAUCA: 0.92 ratio
GUGGGAGUUCUCCUUCAGGAUCAUGAUGUUCGUCAGAGUGAAUUUCAGCAACUUCCCUACCAUCGAAUUUUUAUCAUGCUUCUCUUGGAACUCAAUGCACCUGAGCAUGUGUUGGAAACC: 0.183 ratio
UCACUUUAAAGCAAUUGCAUAAUAGAUAAAAACCUGAACUUUCAUUGGAUUUUUGUUAAUUUUCCUCAUUUUGAAUUAUGUGCACUACCAUAGCUACAUCAGUUUGAUACAGUAUUGAAA: 0.628 ratio
CCAUAGUAUGUGACUCUACAUAACAUACUGAAACUAUUUAUAUUUUCUUUUUUAAGGAUAUUUAGAAAUUUUGUGUAUUAUAUGGAAAAAGAAAAAAAGCUUAAGUCUGUAGUCUUUAUG: 1.84 ratio
CCUCUCCCUCCAUCCCUCAAAAGAUCUUUAUGCAUUUCCCACUACUCCCUUACUGUCUUUUAGCAUUCAGAGAAAAAGCCAACUUGCUUAAAGAGGAAUCACUUAAAAGGUAGGCAUAUC: 0.577 ratio
AUCCCCCAGGAAUUGAACAACAUUACCAAGCUCAACGAACACUUCAGCAAAUUUGGAACCAUAGUUAAUAUCCAGGUUGCUUUUAAGGGUGAUCCAGAAGCAGCACUCAUCCAAUACCUU: 0.429 ratio
GCCCGCCUUUUUCUCUCACACUUUGGAUUUUUGUCCUUAGAAGCACUGAAGGAACCUGCAAAUAGUCGUCUACCUCCUCACCUUAUUGCACUUGAUUCCACGAUACCUGGAUUUUUUGAU: 0.537 ratio
CAAAUAAAAAAUUUUGGUCAUUUGGUACUGACUUUCUCUCUCUCUCUCUCUCUCUUUUUUUUUUUUGACAGAGUCUCGCACUGUUGCCUGGGCUGGAAUGCAGUGGUGCGAUCUCGGCUC: 0.387 ratio

Series 4 — method: RNAcompete; form: RNA; sample: in vitro; tested at: 20 nM; setting: 7-mer, probes averaged, single round; baseline: mean of 7-mers; reading: higher = stronger binding; endpoint: 7-mer Z-score
Target: PABPC1L2, full length, GST fusion (mouse, UniProt A0ABA7IW68)
Construct (chain): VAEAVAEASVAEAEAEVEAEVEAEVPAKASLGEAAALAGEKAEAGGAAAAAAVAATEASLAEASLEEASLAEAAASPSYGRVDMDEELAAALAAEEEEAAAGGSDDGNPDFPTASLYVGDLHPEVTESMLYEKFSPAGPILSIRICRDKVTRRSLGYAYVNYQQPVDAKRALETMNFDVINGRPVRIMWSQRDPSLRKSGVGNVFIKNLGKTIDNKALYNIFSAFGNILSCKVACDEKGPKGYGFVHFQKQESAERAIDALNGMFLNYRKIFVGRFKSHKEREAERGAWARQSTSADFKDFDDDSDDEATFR
GUGCGUU: -0.273
UCCCCCA: -0.431
UGGUCCC: -0.182
GGUUUCU: -0.322
GAAAGUU: 0.55
CCAAGGU: -0.139
GAUCAAG: 0.0152
GAAUCCC: -0.248
CUGCAAC: -0.021
CUAUAAU: -0.126
UGGUUGC: -0.113
GCCGAUC: -0.166
UUUUCGA: -0.226
AGCUUCA: -0.132
CUGUCGU: -0.344
CACAUUA: 0.0116
UACGUUA: -0.19
ACCCCGC: -0.382
CUCUCGG: -0.242
GGACGAC: 0.0551
CCGGGCC: -0.3
AGUACAC: -0.106
CACGAUA: 0.037
UUGGGGC: 0.204
CGCGAAC: -0.235

For quick reference, copied from above (series 2):
AACAACTG: 0.0306
CGTGTTCC: -0.217
GTAGATAA: 0.239
AGCTGCGG: -0.351
GTCCCACA: -0.116
CGCAGCCG: -0.334
